# Published values collected from several papers.
# ± gives the spread as reported.
SMILES,test,test system,conditions,unbound fraction
NCCOCC(=O)N1CCC[C@H](C(=O)NCc2nc(-c3ccc(C(F)(F)F)cc3)cs2)C1,plasma protein binding,human plasma,,0.046
Cc1c(C(=O)O)ccc2c3n(nc12)[C@@H]1[C@H](C3)N(CC2CC2)[C@@]2(C(=O)Nc3cc(Cl)ccc32)[C@H]1c1cccc(Cl)c1F,equilibrium dialysis,human plasma,pH 7.4,0.0022
Cc1cc(Nc2ccc(C(F)(F)F)cc2)c2ccccc2n1,rapid equilibrium dialysis,diluted mouse plasma,2 µM,0.03
CC(C)c1nc(N(C)S(C)(=O)=O)nc(-c2ccc(F)cc2)c1/C=C/[C@@H](O)C[C@@H](O)CC(=O)O,in vitro,liver,,0.125
CC(C)c1ncc(C(=O)N2CCOC3(CCN(Cc4ccc(F)c(CCNC[C@H](O)c5ccc(O)c6[nH]c(=O)sc56)c4)CC3)C2)s1,equilibrium dialysis,rat lung homogenate,,0.024
O=C1N[C@H](c2cncc(C#Cc3ccccc3)c2)[C@@H](c2ccccc2Cl)O1,,human plasma,,< 0.01
Nc1ncnc2c1c(Oc1cc(C(F)(F)F)ccn1)nn2[C@@H]1CCCC[C@H]1O,,mouse brain tissue,,4.1%
C[C@@H](N)COc1ccc(-c2cnc3ccc(N[C@H](C)c4cccc(F)c4)nn23)cc1,rapid equilibrium dialysis,human plasma,,0.0629
CCOCC(=O)N1CCC[C@H](C(=O)NCc2nc(-c3ccc(C#N)nc3)cs2)C1,plasma protein binding,rat plasma,,0.053
CC(=O)N1CCN(c2ccc(OCC3COC(Cn4ccnc4)(c4ccc(Cl)cc4Cl)O3)cc2)CC1 (stereo not shown),equilibrium dialysis,human plasma,"1 µM, 6 h",0.0199
CC(C)(C(=O)NC1C2CC3CC1CC(C(N)=O)(C3)C2)N1CCN(c2ccc(C(F)(F)F)cn2)CC1 (stereo not shown),in vitro,human plasma,,0.022
CCONC(=O)N1CCC[C@H](C(=O)NCc2nc(-c3ccc(C#N)cc3)cs2)C1,plasma protein binding,rat plasma,,0.048
CN[C@@H](C)C(=O)N[C@H]1CN(C(=O)CC(C)C)CC[C@H]2CC[C@@H](C(=O)NC(c3ccccc3)c3ccccc3)N2C1=O,ultrafiltration,plasma,"5 µg/mL, 1 h, 37 °C",0.195
COCC(=O)N1CCC[C@H](C(=O)NCc2nc(-c3ccccc3)cs2)C1,plasma protein binding,rat plasma,,0.019
N#Cc1ccc([C@H]2CCc3cncn32)c(F)c1,,plasma,,0.636
Cn1cncc1[C@@](N)(c1ccc(Cl)cc1)c1ccc2c(c1)c(-c1cccc(Cl)c1)cc(=O)n2C,,"cancer patients, plasma",,0.0062
CC[N+]1(C)CCN(c2ccc(C(=O)Nc3cccc(C)n3)cc2)CC1,,human plasma,,0.46
CO[C@H]1C[C@@H]2CC[C@@H](C)[C@@](O)(O2)C(=O)C(=O)N2CCCC[C@H]2C(=O)O[C@H]([C@H](C)C[C@@H]2CC[C@@H](OC(=O)NCCOCCOCCOCCOCCOCCOCCOCCOCCC(=O)N3CCc4cc(Cn5nc(-c6ccc7oc(N)nc7c6)c6c(N)ncnc65)ccc4C3)[C@H](OC)C2)C[C@@H](O)[C@H](C)/C=C(\C)[C@@H](O)[C@@H](OC)C(=O)[C@H](C)C[C@H](C)/C=C/C=C/C=C/1C,ultracentrifugation,mouse plasma,5 µM,0.004
CC[C@H]1OC(=O)[C@H](C)[C@@H](OC2CC(C)(OC)C(O)C(C)O2)[C@H](C)[C@@H](OC2OC(C)CC(NC)C2O)C(C)(O)C[C@@H](C)C(=O)[C@H](C)[C@@H](O)C1(C)O (stereo partly shown),equilibrium dialysis,human liver microsomes 0.5 mg/mL,"2 µM, 20 h, 37 °C, scaled to 1 mg/mL",0.51
Nc1c(CC(=O)O)cccc1C(=O)c1ccc(Br)cc1,in vitro,plasma,,0.005
Cc1cc(C)c(CNC(=O)c2cc(Cl)c3c(c2C)O[C@@](C)([C@H]2CC[C@H](N(C)C)CC2)O3)c(=O)[nH]1,ultracentrifugation,"solution, alpha-1 acid glycoprotein, 0.1%","1000 ng/mL, 160 min",0.0881
COc1cc(CC(=O)O)ccc1O,,plasma,,0.65 ± 0.13
Cc1ccc(Nc2cnnc3ccc(-c4ccc(N5CCCN(C)CC5)cc4)cc23)cn1,equilibrium dialysis,human plasma,"10 µM, pH 7.4",0.12
CC1(C)C(/C=C/C=C/C=C/C=C2\N(CCCCS(=O)(=O)O)c3ccc4ccccc4c3C2(C)C)=[N+](CCCCS(=O)(=O)[O-])c2ccc3ccccc3c21,,mouse whole serum,4 h,< 0.1
COCC(=O)N1CCC[C@H](C(=O)NCc2nc(-c3ccc(C#N)cc3)cs2)C1,plasma protein binding,rat plasma,,0.011
COc1cc(N2CCC(N3CCN(C)CC3)CC2)ccc1Nc1ncc(Cl)c(Nc2ccccc2P(C)(C)=O)n1,,"healthy subjects, plasma",ex vivo,8.83%
N#C[C@@]1(c2ccc3c(N)ncnn23)O[C@H](CO)[C@@H](O)[C@H]1O,plasma protein binding,rat plasma,1 µM,0.971
Cc1cccc(Nc2ccccc2C(=O)O)c1C,equilibrium dialysis,"human liver microsomes 0.25 mg/mL, 2% BSA",6 h,0.025

# A few entries again:
SMILES,test,test system,conditions,unbound fraction
CCONC(=O)N1CCC[C@H](C(=O)NCc2nc(-c3ccc(C#N)cc3)cs2)C1,plasma protein binding,rat plasma,,0.048
CN[C@@H](C)C(=O)N[C@H]1CN(C(=O)CC(C)C)CC[C@H]2CC[C@@H](C(=O)NC(c3ccccc3)c3ccccc3)N2C1=O,ultrafiltration,plasma,"5 µg/mL, 1 h, 37 °C",0.195
